# Results of several laboratories.
# Parts stem from different laboratories: compare values within a part only.

# Series 1
# Target: Prothrombin, mature alpha-thrombin (F2, Homo sapiens, UniProt P00734)
# Technique: aptamer microarray, sandwich
# Molecule type: DNA with 2'F-ANA
# Matrix: in vitro
# Tested at: 200 nM
# Notes: whole 15-mer aptamer, many near background
# With: Cy3 exosite-II aptamer, 400 nM
# Reading: higher = stronger binding
# Sequence: GGTTGGTGTGGTTGG
Modification,mean fluorescence intensity [a.u.]
2'F-ANA at 1 2 4 7 8 9 10 11 12 13 14,52.9
2'F-ANA at 1 2 3 6 7 8 9 10 12 15,87.2
2'F-ANA at 3 6 7 8 9 10 11 12 13 14 15,352
2'F-ANA at 1 2 3 4 5 7 8 9 11 13,55.3
2'F-ANA at 4 5 6 7 9 11 12 14,82.1
2'F-ANA at 1 2 3 4 6 7 10 12 14 15,57.3
2'F-ANA at 7 8 10 11 12 13 15,199
2'F-ANA at 3 8 9 12 15,1280
2'F-ANA at 1 4 5 6 7 9 12 13 15,66.5
2'F-ANA at 1 2 3 4 5 7 8 11 12,97
2'F-ANA at 1 2 3 6 11 14,92
2'F-ANA at 2 5 6 12,182
2'F-ANA at 3 5 8 10 15,129
2'F-ANA at 1 3 5 10 11 12 14,57.4
2'F-ANA at 1 3 4 5 6 7 8 9 13 15,55.3
2'F-ANA at 3 4 5 6 7 8 10 11 13 14 15,55.9

# Series 2
# Target: Interferon regulatory factor 5, full length, phosphomimetic (IRF5, Homo sapiens, UniProt Q13568-2, residues 1-514, S451D/S453D/S456D/S462D)
# Technique: protein-binding microarray
# Molecule type: double-stranded DNA, one strand shown
# Matrix: in vitro
# Tested at: 940 nM top
# Notes: 60-bp whole probe
# With: salmon DNA 0.4 mg/ml
# Relative to: random background probes
# Reading: higher = stronger binding
# Constant ends, left off below: GCCTAGCAC … GTCTTGATTCGCTTGACGCTGCTG
Sequence,fitted relative affinity
TTCGGTTTCGGGACTGGGTTAGTGCTA,7.76 z-score
TTAGATATCAGTATCGATCAGTGCTAG,4.38 z-score
TTAGGACTGCTTCTCCATTAGTGCTAG,-0.24 z-score
GACGAACTGCGTATCGAGACGTGCTAG,0.18 z-score
TCGGTTTCCAAATTGTCTCTGTGCTAG,1.71 z-score
GACGGTATCTACACTGGGGACGTGCTA,0.641 z-score
GACGGTTTCTACACTGGGGACGTGCTA,1.92 z-score
GACGGTATCCTTTTTCTGACGTGCTAG,0.732 z-score
GACGGACTGCTTATCCTGATGTGCTAG,-0.161 z-score
GACGCTTTCGGTCTCGGGACGTGCTAG,6.44 z-score
TTAGGACTAGGTATCGGTTAGTGCTAG,3.85 z-score
GACGGACTGGACTATAGGGACGTGCTA,-0.519 z-score
GACGGTTACGGGTTTCGGGACGTGCTA,1.89 z-score
GGTCTTTCCACTTTCTTTTGGTGCTAG,1.96 z-score
TTGGGTTTCGGGTATCGGTTAGTGCTA,9.35 z-score
GGCTTTTTAATGAATGAAGAGGTGCTA,-0.347 z-score
TTAGGTTCCTTTTTCCTTTAGTGCTAG,0.869 z-score

# Series 3
# Target: RNA binding protein fox-1 homolog 2, RRM domain, GST-SBP tag (RBFOX2, Homo sapiens, UniProt O43251-10, residues 100-194)
# Technique: RNA Bind-n-Seq
# Molecule type: RNA
# Matrix: in vitro
# Tested at: 365 nM
# Notes: natural RNA segment, single round, ends assumed
# Relative to: no-protein control
# Reading: higher = stronger binding
# Constant ends, left off below: GGGAGUUCUACAGUCCGACGAUC … UGGAAUUCUCGGGUGCCAA
# Target sequence (chain): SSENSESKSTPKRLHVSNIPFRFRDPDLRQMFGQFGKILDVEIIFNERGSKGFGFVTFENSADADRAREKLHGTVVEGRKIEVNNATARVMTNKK
Sequence,RBNS enrichment (R)
CCACACUGGUGGGCUGCUGGGUAUUCAGCCACCACACUCUUCACUGCUUGGACCUAGUUGGUGUUUGUGUUCUGUAAAGUGAGCACGUUGUCCUCCCAAGAGAAGCACUU,0.783
AAUAGGAUUUGACCUACAUUCUGUUGCCCCUAGGUUUGUGUUAGUGUCAGAAAUACUUAAACAGUGGUAAAUGCACAUGUUACUUUUAAAUCAUUAGGAUAACUCCUGUC,0.556
GGGUUAGAUGUUGCCAUGUGUUUUAGAUGGUUUCUUGCAAGCAUGCUUGUGAAAAUGUGUUCUCGGAGUGUGUAUGCCAAGAGUGCACCCAUGGUACCAAUCAUGAAUCU,1.07
UGUAAGCCGAGAGAAAAGUCAUGUAUAUCAGGCCUAGGUCUUGACACUUAAUUUUCUAUUGUAAAAAGUAAUAAUAUACAGAGUCUAACAGAAGGUCCUGUUGGGUUUGU,0.276
CUUUGCAUCACUAUUAAAGAGCAGAAAGUUCUAGAAAUGAUCCCAGCCUCAUCCCCUAUACAGUUAGGAGCUCCCCACAUCUCUACCAAAACCCAGCACAUAAGUAUCUG,0.692
CUCUGUUUUUACCCAUGGCAGACAUUGCUAAUCAAUGGCAGCUCUAUUUCACUGAGUCUGGAUAAGGUUUCAGAGUUCAAAUGCUUGACGUUGGCACUUAACAUGAAAGC,0.404
UCAACACAGCCCACAGCCCAUUUUACAGAAACCAAAACUGAGUUCUAACAGGAGGAGUGAUUUGCCCAGGGUUUUUAGCCCUCUCUGGUACAGAACUGGGAUGUGAACAU,0.454
CUUCUUUUCUUUCAAAGACUUAUUUAUUUUAUGUAUACGAGUACACUGUAGCUGUCUUCAGACACACUAGAAGAGGGCAUCAGAUUCCAUUACAGAUGGUUGUGAGCCGC,0.298
UAUUAACCAUGUUGGGUGGAUAGCGGCAGAGCAAAAAGUUUGAAUGGGCUAGAGGUGGGAAGCUUGAGUGUUUAAUAAAAUGAGGCUUUUGGAAAGAAAGAUGAAAACGU,1.53
UUGAAAAAAUACACUGGUGCUCUUUGAAGUGAUAAAAUGAGUGUUUAUGAAUGGGUGUAAUUAGGAAAUACUUCUCAUCUGACAGCUACAAAUAACUAAGUUUGGAGGUA,0.738
CUGAGAAGUCAAGAGAGGACAUUGGCUCACGCACUGUGAGAUUUUGUUUUUAUACUUGGAAGUGGUGAAUUAUUUUAUAUAAAGUCAUUUAAAUAUCUAUUUAAAAGAUA,0.442
AUGGAGCAGGGAAGUACAGAGUGGGAUGGUCAGGACCUGGGCCAUUGCAACCAAAAUGGGGACUUCCUGGGUAGGGAGGUCACUCCCUCUACUCACUGAGCUAGGAUUAG,0.4

# Single results of other studies
Substance,target,test,test system,conditions,scale,measurement,value
"PhoQ, residues 284 288 289 292 302 303 ASSHFY","PhoP, residues 12 14 15 18 19 IQFRS (Escherichia coli, UniProt P23836)","Sort-seq, measured: YFP reporter",E. coli,"PhoQ-PhoP variant library, with: 10 µM Mg2+","relative to: high Mg2+ state, higher = stronger signaling",fold induction,14.7

# For quick reference, copied from above (series 1):
Modification,mean fluorescence intensity [a.u.]
2'F-ANA at 1 4 5 6 7 9 12 13 15,66.5
2'F-ANA at 1 3 4 5 6 7 8 9 13 15,55.3
2'F-ANA at 1 2 3 6 11 14,92
